{"data": "Measurements collected from several papers", "note": "Compare with care: the assays were run in different laboratories. Several values in a cell are separate wells, animals, samples, runs or records. ± marks the error that the study gave."}
{"SMILES": "O=C(Nc1nc2cccc(-c3ccc(CN4CCS(=O)(=O)CC4)cc3)n2n1)C1CC1", "assay": "item: chills", "test system": "human rheumatoid arthritis patients", "setting": "oral, 200 mg once daily, 4 weeks, regardless of relatedness", "quantity": "treatment-emergent adverse events", "value": "0%"}
{"SMILES": "Cc1ccc(CNC(=O)c2cc(/C=C/C(=O)O)cc(-c3ccc4ncnn4c3)c2)cc1", "test system": "human liver microsomes", "setting": "1 µg/mL, 60 min, added: NADPH", "quantity": "metabolic stability", "value": "stable"}
{"SMILES": "C[C@@H]1OC(=O)[C@H](Cc2ccccc2)[C@H]1O", "assay": "aerobic dark soil incubation", "test system": "clay loam soil", "setting": "20 °C, persistence endpoint", "quantity": "DT50", "value": "0.12 days"}
{"SMILES": "Cn1cc(Nc2nccc(-c3ccc4c(c3)CN(C3COC3)CC[C@H]4NC(=O)c3cn(C(C)(C)C)nn3)n2)cn1", "test system": "human, whole blood", "setting": "300 mg twice daily, day 7", "how to read": "baseline: pre-dose baseline", "quantity": "plasmablast count change", "value": "198%"}
{"SMILES": "NC(=O)[C@H](CCCN=C(N)CF)NC(=O)c1ccccc1", "tested on": "HBL-1", "setting": "1 µM, 120 h", "quantity": "viability", "value": "110%"}
{"SMILES": "Cc1ccc(Sc2ccccc2N2CCNCC2)c(C)c1", "assay": "item: hot flush", "test system": "healthy adult women", "setting": "oral, 5 mg daily, 12 days", "quantity": "participants with TEAE", "value": "16.7%"}
{"SMILES": "CNC(=O)c1cc(Oc2ccc(NC(=O)Nc3cc(C(C)(C)C)nn3-c3ccc4ncccc4c3)c(F)c2)ccn1", "test system": "human", "setting": "oral, dose not given, cycles 1 and 2, High AUC(0-4 h) subgroup", "quantity": "patients with any AE of special interest", "value": "89%"}
{"SMILES": "C[C@H]1O[C@@H](O[C@H]2CC[C@@]3(C)[C@@H](CC[C@]4(C)[C@@H]3C=C[C@]35OC[C@@]6(CCC(C)(C)C[C@H]63)[C@@H](O)C[C@]54C)[C@]2(C)CO)[C@H](O)[C@@H](O[C@@H]2O[C@H](CO)[C@@H](O)[C@H](O)[C@H]2O)[C@H]1O", "assay": "UHPLC-MS/MS", "test system": "mouse, plasma", "setting": "oral, 50 mg/kg, 0.5 h, pooled samples", "quantity": "plasma concentration", "value": "68.5 ng/mL and 58.4 ng/mL"}
{"SMILES": "O=C(Nc1cnccc1Cl)N1CCN(Cc2ccc3c(c2)OC(F)(F)O3)CC1", "assay": "multiple ascending dose", "test system": "young women", "setting": "100 mg, treatment-emergent adverse events", "quantity": "postural dizziness incidence", "value": "0%"}
{"SMILES": "CCOc1c([C@H](C)n2nc(C)c3c(N)ncnc32)cc(Cl)c(F)c1[C@@H]1CNC(=O)C1", "test system": "previously treated B-cell malignancy patients", "setting": "oral, dose not given, all doses, baseline QTcF ≤450 ms", "quantity": "share of patients with ΔQTcF ≤30 ms", "value": "100%"}
{"SMILES": "C[C@H]1Oc2cc(cnc2N)-c2c(nn(C)c2C#N)CN(C)C(=O)c2ccc(F)cc21", "test system": "human patients, plasma", "setting": "oral, dose not given, cycle 2 day 1, median, added: avelumab", "quantity": "AUClast", "value": "4510 ng·h/mL"}
{"SMILES": "C[C@@H](N)C1CCN(S(=O)(=O)c2cccc3cnccc23)CC1", "test system": "healthy volunteers", "setting": "150 mg single dose, fed", "quantity": "discontinuations due to TEAEs", "value": "0%"}
{"SMILES": "CCc1cc(C(=O)NC)c2nccc(N3CCc4c(cc(Cn5ccnc5)cc4-c4cn(C)nc4C(F)(F)F)C3=O)c2c1", "test system": "Sprague Dawley rat", "setting": "oral, 100 mg/kg twice daily, 7 days", "how to read": "baseline: vehicle", "quantity": "heart weight change", "value": "-5.73%"}
{"SMILES": "COc1ccc(C[C@@H](C)[C@@H](C)Cc2ccc(OC)c(OC)c2)cc1OC", "test system": "beagle dog female, plasma", "setting": "oral, 1000 mg/kg/day, day 1", "quantity": "AUC(0-t)", "value": "24800 ± 15300 ng·h/mL"}
{"SMILES": "CCCC(CCC)NC(=O)c1ccc2c(c1)OCO2", "test system": "rat Sprague-Dawley, plasma", "setting": "intravenous, 1 mg/kg", "how to read": "baseline: female over male", "quantity": "AUC(0-t) ratio", "value": 0.7}
{"SMILES": "OB1NN=Cc2ccccc21", "assay": "stability, UPLC-MS", "test system": "diluted serum", "setting": "5 day, 37 °C", "how to read": "higher = more compound remaining", "quantity": "peak area", "value": "307000 a.u. and 306000 a.u. and 308000 a.u."}
{"SMILES": "CCc1nn(C)c2nc(-c3ccc(C(=O)O)cc3)nc(NCc3ccc(F)cc3)c12", "test system": "NSG mice", "setting": "dose not given, day 4 of treatment", "quantity": "body weight", "value": "20 g and 20.8 g and 20.9 g and 22.1 g"}
{"SMILES": "OC[C@H]1O[C@@H](c2ccc(Cl)c(Cc3ccc(O[C@H]4CCOC4)cc3)c2)[C@H](O)[C@@H](O)[C@@H]1O", "assay": "item: blood and lymphatic disorders", "test system": "healthy Korean men", "setting": "oral, dose not given", "quantity": "number of TEAEs", "value": 1}
{"SMILES": "CN1CCC[C@H](CN2c3ccccc3Sc3ccccc32)C1.Cl", "test system": "fasted female ICR mouse, eye", "setting": "oral, 16 mg/kg", "quantity": "Cmax", "value": "239 ng/g"}
